Published values collected from several papers.
Parts stem from different laboratories: compare values within a part only. Changes are numbered by the printed parent chain.

Block 1 — target: CCND1, cyclin fold, Cln2 fusion (human); method: yeast growth competition, sequencing; matrix: yeast; notes: strong parent motif; relative to: not given; reading: higher = stronger binding; endpoint: normalised enrichment score
Starting sequence: INSM1 docking peptide (human); PKAIRKLHFEDEV; partner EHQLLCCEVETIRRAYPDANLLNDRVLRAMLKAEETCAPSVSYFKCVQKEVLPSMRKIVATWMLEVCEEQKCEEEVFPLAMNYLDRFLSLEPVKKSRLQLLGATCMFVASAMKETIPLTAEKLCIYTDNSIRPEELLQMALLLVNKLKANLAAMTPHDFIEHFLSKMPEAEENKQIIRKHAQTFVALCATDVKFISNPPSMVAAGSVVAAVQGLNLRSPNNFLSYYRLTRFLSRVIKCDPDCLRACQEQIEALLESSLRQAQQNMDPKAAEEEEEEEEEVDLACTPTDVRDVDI
PKAIRKLHFEDYV [E12Y]: 3.61
PKAIRKLWFEDEV [H8W]: 4.18
PKATRKLHFEDEV [I4T]: 1.73
PKAIRKLEFEDEV [H8E]: 5.12
PKYIRKLHFEDEV [A3Y]: 0.368
PWAIRKLHFEDEV [K2W]: 2.51
PKAIRKLHFDDEV [E10D]: 4.7
PKAIRKLHAEDEV [F9A]: -0.396
PKAIIKLHFEDEV [R5I]: 1.34
PKAIRKLPFEDEV [H8P]: 1.83
PYAIRKLHFEDEV [K2Y]: 2.86
PKAIKKLHFEDEV [R5K]: 2.05
PKAIYKLHFEDEV [R5Y]: 1.15
PGAIRKLHFEDEV [K2G]: 5.27
PKAIRKLHFEQEV [D11Q]: 3.22
PKAIRKLHFEDFV [E12F]: 3.88

Block 2 — method: Sort-seq; item: YFP reporter; matrix: E. coli; notes: PhoQ-PhoP variant library; with: 10 µM Mg2+; relative to: high Mg2+ state; reading: higher = stronger signaling; endpoint: fold induction
Substance: PhoQ, residues 284 288 289 292 302 303 ASVMEA
PhoP, residues 12 14 15 18 19 LHTVL (Escherichia coli, UniProt P23836): 32.4
PhoP, residues 12 14 15 18 19 TQAML (Escherichia coli, UniProt P23836): 19.7
PhoP, residues 12 14 15 18 19 NQCAL (Escherichia coli, UniProt P23836): 17.7

Block 3 — method: RNA Bind-n-Seq; form: RNA; matrix: in vitro; tested at: 1 µM; notes: whole 134-nt RNA, ends assumed; with: 150 mM KCl; relative to: input library; reading: higher = stronger binding; endpoint: log2 enrichment
Target: Ras GTPase-activating protein-binding protein 1, C-terminal RGG region (G3BP1, Homo sapiens, UniProt Q13283)
Chain of UniProt Q13283 (whole entry, looked up): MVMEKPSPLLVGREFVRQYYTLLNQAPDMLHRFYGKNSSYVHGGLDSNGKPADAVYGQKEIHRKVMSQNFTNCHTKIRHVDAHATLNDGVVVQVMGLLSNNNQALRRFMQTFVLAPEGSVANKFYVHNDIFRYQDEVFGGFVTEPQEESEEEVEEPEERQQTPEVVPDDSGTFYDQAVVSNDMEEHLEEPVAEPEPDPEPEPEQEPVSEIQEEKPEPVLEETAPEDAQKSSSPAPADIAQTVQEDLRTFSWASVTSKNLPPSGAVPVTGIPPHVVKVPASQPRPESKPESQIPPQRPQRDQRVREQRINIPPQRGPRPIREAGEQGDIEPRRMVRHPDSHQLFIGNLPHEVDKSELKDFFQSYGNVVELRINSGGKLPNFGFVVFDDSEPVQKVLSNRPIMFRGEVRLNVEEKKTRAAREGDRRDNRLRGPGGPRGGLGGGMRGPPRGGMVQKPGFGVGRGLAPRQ
Shared flanks, not repeated: GGGAGUUCUACAGUCCGACGAUC … UGGAAUUCUCGGGUGUCAAGG
UAAGGAUUCUAUCUGCUUACUGCUACAGACCUAUGUGUUAAGGAAUUCUUCUCCUCCUCCUUGCGUAGAAGUUGAUCAGCACUGUGGUCA: -0.334
CAAGUCCUGUGCUACACAUCGUAUGUACCGAAUCGGGGUUUGGGUUUGGUUUGGGAAAGUAUUAUGUUACGCCGUUCGGAUCUGCACUUC: -0.738
ACCAUGCAGGUGGGCAUCUUAGGGAAGUGGGGCAAGGGGGGGAUAGGGAGGGGGGUAACACUUUGGGAACAGGUGGUCCCAGGUCGUUUC: -0.989
CCUGUGCUACACAUCGUAUGUACCGAAUCGGGGAAAAAAGGGAAAAAAGGGAAAAAAGGGAAAGUAUUAUGUUACGCCGUUCGGAUCUGC: -1.5
UCCUGUGCUACACAUCGUAUGUACCGAAUCGGCCCCCCGGGGCCCCCCGGGCCCCCCGGAAAGUAUUAUGUUACGCCGUUCGGAUCUGCA: -1.25
GCAGGAAGUAAAAACAAAUGGAAAUGCUUCGGAUAGUGGCCGGGGUGGGGGUUGCUAAGGAAAGGGUGGGAUGGGAGUGGGUAAAGAGUU: 1.5
UAACUUUAGAGGAGCAUCUGAUGGAUAUGGCAGUGGACGUGGAUUUGGGGAUGGCUAUAAUGGGUAUGGAGGAGGACCUGGAGGUGGCAA: 0.459
UGGCCCUGGUGGCAUGCGGGGAGGAAGAGGUCGCCUCAUGGAUCGUGGUGGUCCCGGUGGAAUGUUCAGAGGUGGCCGUGGUGGAGACAG: 1.69
CUGUGCUACACAUCGUAUGUACCGAAUCGGGGUUUUUGGGGAAAAAGGGGAAAAAAAGGGGAAAGUAUUAUGUUACGCCGUUCGGAUCUG: 0.129

Block 4 — method: aptamer microarray, sandwich; form: DNA with 2'F-ANA; matrix: in vitro; tested at: 200 nM; with: Cy3 exosite-II aptamer, 400 nM; reading: higher = stronger binding; endpoint: mean fluorescence intensity; oligonucleotide: GGTTGGTGTGGTTGG
Target: Prothrombin, mature alpha-thrombin (F2, Homo sapiens, UniProt P00734)
Notes: whole 15-mer aptamer, many near background
2'F-ANA at 1 2 3 6 10 13 14 15: 55.2 a.u.
2'F-ANA at 3 5 8 9 12 13 15: 179 a.u.
2'F-ANA at 1 5 10 12 13 14: 45.6 a.u.
2'F-ANA at 1 3 4 5 8 9 11 13: 49.8 a.u.
2'F-ANA at 1 10 11 13 14 15: 53.9 a.u.
2'F-ANA at 2 5 9: 126 a.u.
2'F-ANA at 2 10 13 14: 90.3 a.u.
2'F-ANA at 1 2 3 5 6 8 12 14: 64 a.u.
2'F-ANA at 1 3 5 7 8 11 14 15: 49.5 a.u.
2'F-ANA at 1 6 8 11 12 14: 68.3 a.u.
2'F-ANA at 1 2 3 4 5 9 12 13: 73.5 a.u.

For quick reference, copied from above (block 4):
2'F-ANA at 1 3 4 5 8 9 11 13: 49.8 a.u.
2'F-ANA at 1 10 11 13 14 15: 53.9 a.u.
2'F-ANA at 2 5 9: 126 a.u.
2'F-ANA at 2 10 13 14: 90.3 a.u.
